Experimental data gathered from unrelated publications.
Each line is one published result; not all experiments were run side by side.

| SMILES | test system | setting | Tmax |
| --- | --- | --- | --- |
| CC[C@@]1(O)C(=O)OCc2c1cc1n(c2=O)Cc2cc3c(CN(C)C)c(O)ccc3nc2-1 | human patients | oral, 2.5 mg daily, 5 days, cycle 2 day 5, median, added: pazopanib 800 mg daily | 2 h |
| Cc1ncc2n1-c1ccc(Cl)cc1C(c1ccccc1F)=NC2 | human CYP3A5*3/*3 non-expressers, serum | oral, 4 mg, median, no co-treatment | 0.76 h |
| O[C@H]1CCCN[C@@H]1CCCn1cnc2c(Cl)c(Cl)ccc21 | healthy human volunteers, plasma | oral, 200 mg, day 1, median | 3 h |
| COc1ccc(C[C@@H]2NC(=O)[C@H]([C@@H](C)O)NC(=O)[C@@H]3[C@@H]4CCN3C(=O)[C@@H]3Cc5cn(c6ccc(F)cc56)CCCCCCN(Cc5ccc(cc5)CCNC(=O)[C@]5(C)CCCN5C2=O)C(=O)CCC(=O)N[C@@H](C)C(=O)N[C@H](CNC(=O)CCCCC[N+](C)(C)C)C(=O)N[C@@H](Cc2cccc(c2)CNC(=O)CO4)C(=O)N3)cc1 | fasted healthy humans, plasma | oral, 35 mg single dose, with 1800 mg Labrasol, median | 1.5 h |
| CCCCCOc1ccc(-c2cc(-c3ccc(C(=O)N[C@H]4C[C@@H](O)[C@@H](O)NC(=O)[C@@H]5[C@@H](O)[C@@H](C)CN5C(=O)[C@H]([C@H](O)CC(N)=O)NC(=O)[C@H]([C@H](O)[C@@H](O)c5ccc(O)c(OS(=O)(=O)O)c5)NC(=O)[C@@H]5C[C@@H](O)CN5C(=O)[C@H]([C@@H](C)O)NC4=O)cc3)no2)cc1 | human children aged 6-11 years, plasma | intravenous, 4.5 mg/kg once daily, day 7, mean | 2.1 h |
| Cc1ncc2n1-c1ccc(Cl)cc1C(c1ccccc1F)=NC2 | healthy human volunteers, plasma | oral, 5 mg single dose, median, added: water | ≤ 0.5 h |
| CC(=C/C=C/C(C)=C/C(=O)O)/C=C1\CCCc2ccccc21 | healthy human volunteers, plasma | oral, 5 to 20 mg single dose | ~3 h |
| O=c1[nH]c(Cc2ccccn2)nc2c1cnn2C1CCOCC1 | healthy male human, plasma | oral, 10 mg, median | 0.75 h |
| C[C@@H](c1nc(-c2ccc(C#N)cc2)cs1)[C@](O)(Cn1cncn1)c1cc(F)ccc1F | human, both sexes, plasma | oral, 200 mg QD, day 12, median, added: midazolam 3 mg | 4.6 h |

Repeated from above:
| SMILES | test system | setting | Tmax |
| --- | --- | --- | --- |
| Cc1ncc2n1-c1ccc(Cl)cc1C(c1ccccc1F)=NC2 | human CYP3A5*3/*3 non-expressers, serum | oral, 4 mg, median, no co-treatment | 0.76 h |
